Published values from different studies.
Compare with care: the assays were run in different laboratories. Numbers after ± are the reported error.

The pKa of `Cc1nonc1Cn1nnc2c(N3CC[C@H](O)C3)nc(C(C)(C)C)nc21` is reported as 2.6 (basic).
With `COC(=O)[C@H]1[C@@H](c2ccc(Cl)cc2)C[C@@H]2CC[C@H]1N2CCCCCCCCCc1c2ccccc2cc2ccccc12` the pKa was 4.9 (fluorometric titration; 1 µM, 10% DMSO).
With `CC(C)(C)C(=O)NNCc1ccccc1` the pKa was 2.65 (acid-base titration; water; average).
`O=C(O)CNC(=O)C1C(=O)N(C2CCCCC2)C(=O)N(C2CCCCC2)C1=O` gave a pKa of 6.1 (second acidic centre).
With `COc1ccc(C2(F)CC2N)cc1` (stereo not shown) the pKa was 7.5 (potentiometric titration; 0.1 M KNO3; 21 °C).
For `CCCCCCCCCN(C)C`, the pKa was 10 (extrapolated from shorter analogues).
For `O=C(O)C(F)(F)C(F)(F)F`, “pKa shift vs literature” read 0.5 to 1 pKa units (19F NMR chemical shift titration; lower pKa than literature).
The pKa of `COC(=O)[C@H]1[C@@H](c2ccc(Cl)c(Cl)c2)C[C@@H]2CC[C@H]1N2CCCOCc1ccc2cc3ccccc3cc2c1` is reported as 6.5 (fluorometric titration; 1 µM, 10% DMSO).
With `CCCCCCCCCCCCN(C)C` the pKa was 10 (extrapolated from shorter analogues).
`COc1cc(C[C@@H](C)N)c(OC)cc1I.Cl`: “pKa (basic amine)” 9.89 (potentiometric titration; water (extrapolated)).
For `CN(C)c1cc(-c2ccncc2)c(-c2ccc3ccccc3c2)nn1`, the pKa was < 3.5.
With `COc1ccc(C2(F)CC2N)cc1OC` (stereo not shown) the pKa was 7.4 (potentiometric titration; 0.1 M KNO3; 21 °C).
`O=C(O)C(F)F` gave a pKa of 1.22 ± 0.03 (19F NMR titration; MeOH/water; 27 °C).

Some of these lines once more:
`O=C(O)C(F)F` gave a pKa of 1.22 ± 0.03 (19F NMR titration; MeOH/water; 27 °C).
